Assay results from different studies.
Protocols differ between the studies behind these lines. Values joined by “and” are separate records of one study, mostly repeats; a detail may differ. ± marks the error that the study gave.

Molecule	target or system	test	system	conditions	scale	quantity	value
GWTLNSAGYLLGPRRIDHLLMIKEMPIARGREEAPGA / YAVDNHRSFNDKHGFT-NH2 (C-amide)		RT-qPCR, measured: Tjp1	mouse, DSS-induced colitis, colon	ip, 3 µM, 3% DSS, unit not given	baseline: Gapdh	mRNA level	4.85 and 4.45 and 7.31 and 5.73
HVLVMSATRR			peptide, C57BL/6J mice, male, blood	subcutaneous osmotic pump, 3 mg/kg/day peptide basis, 8 weeks		monocytes	7% and 2% and 1% and 5%
colistin	Aspergillus fumigatus		mito::GFP	concentration not given, 15 min, germlings		mitochondrial fragmentation	27.5% and 21.9%
glucagon		ELISA	human, type 1 diabetes, femoral artery plasma	intravenous infusion, 0.12 ng/kg/min, 160 to 180 min		plasma concentration	0.0496 ± 0.0043 ng/mL
heparin sodium			healthy Chinese adult volunteers	continuous intravenous infusion, 8 IU/kg/h, 5 days		positive urine ketone bodies	0%
GWTLNSAGYLLGPHAVDNHRSFNDKHGFT-NH2 (C-amide)			peptide, Gnaq intestinal cKO mice, DSS colitis	ip, 3 µM, 2% DSS		colon length	4.7 cm and 5 cm and 4.8 cm and 5.2 cm and 5.8 cm
insulin human		measured: GRIA4 mRNA	uninfected mouse, brain	i.p., dose not given	baseline: PBS	fold change	1.09
hexaarginine	PorA peptide pore	peptide binding, planar bilayer single-channel recording		0.5 µM, pH 7.4, +15 mV, trans side, 150 mM KCl		kon	2.33e+07 ± 2.5e+06 M⁻¹ s⁻¹
aspterric acid			Arabidopsis thaliana Col-0 seedlings	50 µg/mL, added: branched-chain amino acids		root length	0.83 cm and 0.81 cm and 0.84 cm and 0.85 cm and 0.87 cm and 0.8 cm and 0.86 cm
pertussis toxin		immunostaining, measured: p-PKA	humanized UT (+/h+) mice, SAH model, middle cerebral artery	dose not given		phospho-PKA level	29.7 MFI and 31.5 MFI and 20.8 MFI
Polymyxin B			mouse	intraperitoneal, 20 mg/kg single dose, day 2		survival	100%
nonaarginine	PorA peptide pore	peptide binding, planar bilayer single-channel recording		0.5 µM, pH 7.4, -30 mV, cis side, 150 mM KCl		koff	1110 ± 111 s⁻¹
